Measurements from different studies.
Each numbered part is a random draw from the data of one study; scales do not carry over between parts. “And” joins repeats or separate records; there may be more than shown.
UniProt P10721, sequence (whole entry, unmodified, looked up): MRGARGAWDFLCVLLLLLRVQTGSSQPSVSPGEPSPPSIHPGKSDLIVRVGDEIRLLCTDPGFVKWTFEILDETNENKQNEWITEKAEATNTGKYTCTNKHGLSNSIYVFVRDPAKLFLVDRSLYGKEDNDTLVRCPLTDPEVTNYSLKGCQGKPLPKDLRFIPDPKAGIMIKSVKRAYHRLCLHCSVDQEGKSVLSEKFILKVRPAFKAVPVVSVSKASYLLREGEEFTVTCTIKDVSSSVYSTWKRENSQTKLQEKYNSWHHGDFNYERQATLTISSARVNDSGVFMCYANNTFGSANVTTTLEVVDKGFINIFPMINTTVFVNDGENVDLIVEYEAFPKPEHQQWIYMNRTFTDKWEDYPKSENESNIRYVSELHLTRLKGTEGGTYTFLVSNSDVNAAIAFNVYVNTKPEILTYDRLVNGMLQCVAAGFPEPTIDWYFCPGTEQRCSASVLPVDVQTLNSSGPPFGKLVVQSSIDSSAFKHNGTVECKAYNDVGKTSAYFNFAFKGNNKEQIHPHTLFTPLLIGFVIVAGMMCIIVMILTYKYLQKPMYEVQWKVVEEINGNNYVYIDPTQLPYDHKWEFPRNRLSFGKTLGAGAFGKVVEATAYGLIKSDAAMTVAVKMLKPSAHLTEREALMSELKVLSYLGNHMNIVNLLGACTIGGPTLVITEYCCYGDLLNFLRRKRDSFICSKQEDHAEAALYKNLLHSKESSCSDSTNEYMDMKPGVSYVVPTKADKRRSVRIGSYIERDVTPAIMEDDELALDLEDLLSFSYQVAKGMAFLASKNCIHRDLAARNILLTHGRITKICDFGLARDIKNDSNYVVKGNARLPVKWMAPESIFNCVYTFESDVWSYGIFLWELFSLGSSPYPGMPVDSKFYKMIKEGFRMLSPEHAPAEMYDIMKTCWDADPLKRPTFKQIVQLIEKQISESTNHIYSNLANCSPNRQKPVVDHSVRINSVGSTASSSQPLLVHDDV
UniProt Q15759, sequence (whole entry, looked up): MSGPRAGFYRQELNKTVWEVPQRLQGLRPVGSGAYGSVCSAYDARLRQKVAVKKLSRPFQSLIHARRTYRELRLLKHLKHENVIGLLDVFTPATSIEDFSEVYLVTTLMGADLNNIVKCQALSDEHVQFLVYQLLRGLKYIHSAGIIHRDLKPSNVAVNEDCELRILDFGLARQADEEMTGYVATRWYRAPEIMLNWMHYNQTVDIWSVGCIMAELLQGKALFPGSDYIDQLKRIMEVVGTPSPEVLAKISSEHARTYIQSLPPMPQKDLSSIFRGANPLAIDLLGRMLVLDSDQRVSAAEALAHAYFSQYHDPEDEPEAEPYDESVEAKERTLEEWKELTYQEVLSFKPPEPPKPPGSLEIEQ
UniProt Q96Q40, sequence (whole entry, looked up): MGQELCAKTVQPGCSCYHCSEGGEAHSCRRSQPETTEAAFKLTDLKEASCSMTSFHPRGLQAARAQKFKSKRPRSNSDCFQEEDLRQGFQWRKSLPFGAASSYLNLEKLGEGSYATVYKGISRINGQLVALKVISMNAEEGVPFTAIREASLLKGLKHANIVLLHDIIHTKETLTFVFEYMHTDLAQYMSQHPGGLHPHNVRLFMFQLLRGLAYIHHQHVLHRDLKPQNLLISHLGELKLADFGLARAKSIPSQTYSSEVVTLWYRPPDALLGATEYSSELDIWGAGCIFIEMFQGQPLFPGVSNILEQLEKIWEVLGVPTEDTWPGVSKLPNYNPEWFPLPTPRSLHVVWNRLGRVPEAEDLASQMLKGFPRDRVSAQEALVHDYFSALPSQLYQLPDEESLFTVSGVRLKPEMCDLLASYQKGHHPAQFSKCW

Block 1
Cell line: Huh-7
Concentration: 10 µM
Time: 24 h
For `CC(=O)OCC(=O)[C@@]1(O)[C@H](C)C[C@H]2[C@@H]3CCC4=CC(=O)C=C[C@]4(C)[C@@]3(F)[C@@H](O)C[C@@]21C`, the viability was 99.7%.
`NS(=O)(=O)c1cc2c(cc1Cl)N=C(CSCc1ccccc1)NS2(=O)=O` has a viability of 97%.
`Oc1ncnc2[nH]ncc12` gave a viability of 97.5%.
`CC12CC3CC(C)(C1)CC(N)(C3)C2` gave a viability of 99.4%.
`C[N+](C)(C)CCO` gave a viability of 101%.

Block 2
Species: mouse
Medium: microsomes or S9
Concentration: 2 µM
Time: 0.5 h
For `COc1cc(=O)[nH]cc1C(=O)N1CCCC(N2CCOCC2)C1` (stereo not shown), the remaining compound was 80.3%.
`CC(C)=C1CC[C@H](C)[C@](C)(COc2ccc3ccc(=O)oc3c2)[C@@H]1CCC(N)=O` has a remaining compound of 0%.
`CC(C)c1ccc(CCCNS(C)(=O)=O)cc1` has a remaining compound of 66.2%.

Block 3
SMILES: CO[C@@H]1[C@H](N(C)C(=O)c2ccccc2)C[C@H]2O[C@]1(C)n1c3ccccc3c3c4c(c5c6ccccc6n2c5c31)C(=O)NC4
Effect on: enzyme activity
Action: inhibitor
Concentration: 1 µM
It gave 90% for inhibition (KIT (Homo sapiens, UniProt P10721, A829P)).
For PIK3CA (Homo sapiens, UniProt P42336, C420R): inhibition read 22%.
For MAPK11 (Homo sapiens, UniProt Q15759): inhibition read 0%.
It gave 5% for inhibition (CDK15 (Homo sapiens, UniProt Q96Q40)).
For NEK10 (Homo sapiens, UniProt Q6ZWH5): inhibition read 15%.

Block 4
Target: Beta-2 adrenergic receptor (ADRB2, Homo sapiens, UniProt P07550)
UniProt P07550, sequence (whole entry, looked up): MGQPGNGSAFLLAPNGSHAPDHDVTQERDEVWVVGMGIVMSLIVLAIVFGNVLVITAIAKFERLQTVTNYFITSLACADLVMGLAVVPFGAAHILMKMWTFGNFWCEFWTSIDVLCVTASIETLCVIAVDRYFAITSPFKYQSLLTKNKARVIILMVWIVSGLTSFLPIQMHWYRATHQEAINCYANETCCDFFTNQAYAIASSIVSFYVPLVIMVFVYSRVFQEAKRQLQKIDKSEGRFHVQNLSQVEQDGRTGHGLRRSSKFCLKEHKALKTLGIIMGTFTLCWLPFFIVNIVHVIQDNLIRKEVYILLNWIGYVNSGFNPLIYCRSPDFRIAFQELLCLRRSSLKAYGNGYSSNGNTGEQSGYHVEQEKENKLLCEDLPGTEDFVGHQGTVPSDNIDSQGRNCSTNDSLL
Effect on: ligand displacement
Concentration: 10 µM
With `Cc1cc(Nc2nccc(C)n2)cc(-c2cnc([C@@]3(O)CC[C@H](C(=O)O)C(C)(C)C3)s2)c1` the inhibition was 5.53%.
The inhibition of `COCCOc1nc(-c2ccc(Cl)nc2)nc2c1CN(C(=O)c1ncn3ccccc13)CC2` is reported as -0.65%.
`Cn1nc(C(=O)NCc2ccc(C(=O)O)cc2)cc1-c1ccc2[nH]ccc2c1` gave an inhibition of 6.74%.
With `O=C1NC(c2ccccn2)Sc2ccccc21` (stereo not shown) the inhibition was -13.9%.
`Cc1ncc(-c2cc(Cl)ccc2F)cc1-n1c(=O)n(CC(N)=O)c2ccccc21` has an inhibition of 16.7%.
For `O=C(N[C@H]1CCCCC/C=C\C2C[C@@]2(C(=O)O)NC(=O)[C@@H]2C[C@@H](Oc3ccncc3)CN2C1=O)OC1CCCC1` (stereo partly shown), the inhibition was 12.8%.
For `CCC(F)(F)c1cc(N2CCC(S(C)(=O)=O)CC2)nc2sc(C(N)=O)c(N)c12`, the inhibition was 8.96%.
The inhibition of `Nc1nc(NCc2ccccc2)nc(-c2ccccc2CO)n1` is reported as 20.7%.
For `c1ccc(N2CCN(Cc3nc4ccccc4[nH]3)CC2)nc1`, the inhibition was -6.61%.
With `CN([C@@H]1CCc2c(CC(=O)O)c3ccccc3n2C1)S(=O)(=O)c1ccc(F)cc1` the inhibition was -7.68%.
For `NC(=O)c1ccc2nc(-c3ccc(C4(N)CCC4)cc3)c(-c3ccccc3)n2n1`, the inhibition was 21.5%.
`CN1CCN(c2cnc3c(C4CCN(C(=O)c5ccc(OC(F)(F)F)cc5N)CC4)ncnc3c2)CC1` has an inhibition of -4.21%.
The inhibition of `Cc1c(NC(=O)c2cc(C(N)=O)nc3cc(F)ccc23)c(C(F)(F)F)nn1Cc1ccc(C#N)cc1` is reported as 21.7%.
For `O=S(=O)(NC1CCC(c2cc(F)ccc2F)(S(=O)(=O)c2ccc(Cl)cc2)CC1)C(F)(F)F` (stereo not shown), the inhibition was 9.91%.
For `Nc1cnc(N2CCc3cc(S(=O)(=O)Nc4c(F)cc(Cl)cc4F)cc(N4CCCC4=O)c32)nc1`, the inhibition was -3.08%.
The inhibition of `O=C(NCCCC1CCCCC1)c1ccc(CNC(=O)c2cnn(-c3ccccc3)c2C(F)(F)F)cc1` is reported as 12.4%.
The inhibition of `CC(=O)Nc1ncc(CN2CCC[C@H](Cc3cc(C)nc(C)c3)C2)s1` is reported as -5.16%.
The inhibition of `Cc1ccccc1Oc1cc(-n2c(=O)cc(C(F)(F)F)[nH]c2=O)c2ccccc2c1Cl` is reported as 11.2%.
For `C[C@@H](c1cccc(C#N)c1)n1cc(Cl)cc(C(N)=O)c1=N`, the inhibition was 13.8%.
The inhibition of `Cc1ccc(-c2cnc([C@@]3(O)CC[C@H](C(=O)O)C(C)(C)C3)s2)cc1Nc1cccc(C(F)(F)F)n1` is reported as 1.6%.
`CNC(=N)NCCC[C@H](NC(=O)[C@H](CC(C)C)NC(=O)NNC(=O)[C@H](Cc1ccccc1)NC(=O)[C@H](CO)NC(=O)[C@H](CC(N)=O)NC(=O)[C@@H](Cc1ccncc1)NC(=O)[C@H](N)Cc1ccc(O)cc1)C(=O)N[C@@H](Cc1ccccc1)C(N)=O` gave an inhibition of 1.39%.
The inhibition of `CC1CCN(c2ccnc(NCc3cn(C)cn3)n2)CC1` is reported as -3.61%.

Block 5
Cell line: A-375
Concentration: 100 µM
Time: 36 h
The viability of `CCCCCCCCN[C@@H](C)[C@H](O)c1ccc(SC(C)C)cc1` (racemic) is reported as 0.204%.
With `OC[C@H]1O[C@@H](c2ccc(Cl)c(Cc3ccc(O[C@H]4CCOC4)cc3)c2)[C@H](O)[C@@H](O)[C@@H]1O` the viability was 103%.
With `CCN(CC)CCNC(=O)c1cc(Br)c(N)cc1OC` the viability was 93.9%.
The viability of `C=C1[C@H](CO)[C@@H](O)C[C@@H]1n1cnc2c(=O)[nH]c(N)nc21` is reported as 109%.
The viability of `O=C1C(O)=C([C@H]2CC[C@H](c3ccc(Cl)cc3)CC2)C(=O)c2ccccc21` is reported as 17.1%.
`CC(C)[C@H](NC(=O)[C@H](CC(=O)O)NC(=O)[C@H](CCCCN)NC(=O)[C@@H](N)CCCN=C(N)N)C(=O)N[C@@H](Cc1ccc(O)cc1)C(=O)O` gave a viability of 106%.

Block 6
Target: DNA polymerase theta, ATPase domain (POLQ, Homo sapiens, UniProt O75417)
UniProt O75417, sequence (whole entry, unmodified, looked up): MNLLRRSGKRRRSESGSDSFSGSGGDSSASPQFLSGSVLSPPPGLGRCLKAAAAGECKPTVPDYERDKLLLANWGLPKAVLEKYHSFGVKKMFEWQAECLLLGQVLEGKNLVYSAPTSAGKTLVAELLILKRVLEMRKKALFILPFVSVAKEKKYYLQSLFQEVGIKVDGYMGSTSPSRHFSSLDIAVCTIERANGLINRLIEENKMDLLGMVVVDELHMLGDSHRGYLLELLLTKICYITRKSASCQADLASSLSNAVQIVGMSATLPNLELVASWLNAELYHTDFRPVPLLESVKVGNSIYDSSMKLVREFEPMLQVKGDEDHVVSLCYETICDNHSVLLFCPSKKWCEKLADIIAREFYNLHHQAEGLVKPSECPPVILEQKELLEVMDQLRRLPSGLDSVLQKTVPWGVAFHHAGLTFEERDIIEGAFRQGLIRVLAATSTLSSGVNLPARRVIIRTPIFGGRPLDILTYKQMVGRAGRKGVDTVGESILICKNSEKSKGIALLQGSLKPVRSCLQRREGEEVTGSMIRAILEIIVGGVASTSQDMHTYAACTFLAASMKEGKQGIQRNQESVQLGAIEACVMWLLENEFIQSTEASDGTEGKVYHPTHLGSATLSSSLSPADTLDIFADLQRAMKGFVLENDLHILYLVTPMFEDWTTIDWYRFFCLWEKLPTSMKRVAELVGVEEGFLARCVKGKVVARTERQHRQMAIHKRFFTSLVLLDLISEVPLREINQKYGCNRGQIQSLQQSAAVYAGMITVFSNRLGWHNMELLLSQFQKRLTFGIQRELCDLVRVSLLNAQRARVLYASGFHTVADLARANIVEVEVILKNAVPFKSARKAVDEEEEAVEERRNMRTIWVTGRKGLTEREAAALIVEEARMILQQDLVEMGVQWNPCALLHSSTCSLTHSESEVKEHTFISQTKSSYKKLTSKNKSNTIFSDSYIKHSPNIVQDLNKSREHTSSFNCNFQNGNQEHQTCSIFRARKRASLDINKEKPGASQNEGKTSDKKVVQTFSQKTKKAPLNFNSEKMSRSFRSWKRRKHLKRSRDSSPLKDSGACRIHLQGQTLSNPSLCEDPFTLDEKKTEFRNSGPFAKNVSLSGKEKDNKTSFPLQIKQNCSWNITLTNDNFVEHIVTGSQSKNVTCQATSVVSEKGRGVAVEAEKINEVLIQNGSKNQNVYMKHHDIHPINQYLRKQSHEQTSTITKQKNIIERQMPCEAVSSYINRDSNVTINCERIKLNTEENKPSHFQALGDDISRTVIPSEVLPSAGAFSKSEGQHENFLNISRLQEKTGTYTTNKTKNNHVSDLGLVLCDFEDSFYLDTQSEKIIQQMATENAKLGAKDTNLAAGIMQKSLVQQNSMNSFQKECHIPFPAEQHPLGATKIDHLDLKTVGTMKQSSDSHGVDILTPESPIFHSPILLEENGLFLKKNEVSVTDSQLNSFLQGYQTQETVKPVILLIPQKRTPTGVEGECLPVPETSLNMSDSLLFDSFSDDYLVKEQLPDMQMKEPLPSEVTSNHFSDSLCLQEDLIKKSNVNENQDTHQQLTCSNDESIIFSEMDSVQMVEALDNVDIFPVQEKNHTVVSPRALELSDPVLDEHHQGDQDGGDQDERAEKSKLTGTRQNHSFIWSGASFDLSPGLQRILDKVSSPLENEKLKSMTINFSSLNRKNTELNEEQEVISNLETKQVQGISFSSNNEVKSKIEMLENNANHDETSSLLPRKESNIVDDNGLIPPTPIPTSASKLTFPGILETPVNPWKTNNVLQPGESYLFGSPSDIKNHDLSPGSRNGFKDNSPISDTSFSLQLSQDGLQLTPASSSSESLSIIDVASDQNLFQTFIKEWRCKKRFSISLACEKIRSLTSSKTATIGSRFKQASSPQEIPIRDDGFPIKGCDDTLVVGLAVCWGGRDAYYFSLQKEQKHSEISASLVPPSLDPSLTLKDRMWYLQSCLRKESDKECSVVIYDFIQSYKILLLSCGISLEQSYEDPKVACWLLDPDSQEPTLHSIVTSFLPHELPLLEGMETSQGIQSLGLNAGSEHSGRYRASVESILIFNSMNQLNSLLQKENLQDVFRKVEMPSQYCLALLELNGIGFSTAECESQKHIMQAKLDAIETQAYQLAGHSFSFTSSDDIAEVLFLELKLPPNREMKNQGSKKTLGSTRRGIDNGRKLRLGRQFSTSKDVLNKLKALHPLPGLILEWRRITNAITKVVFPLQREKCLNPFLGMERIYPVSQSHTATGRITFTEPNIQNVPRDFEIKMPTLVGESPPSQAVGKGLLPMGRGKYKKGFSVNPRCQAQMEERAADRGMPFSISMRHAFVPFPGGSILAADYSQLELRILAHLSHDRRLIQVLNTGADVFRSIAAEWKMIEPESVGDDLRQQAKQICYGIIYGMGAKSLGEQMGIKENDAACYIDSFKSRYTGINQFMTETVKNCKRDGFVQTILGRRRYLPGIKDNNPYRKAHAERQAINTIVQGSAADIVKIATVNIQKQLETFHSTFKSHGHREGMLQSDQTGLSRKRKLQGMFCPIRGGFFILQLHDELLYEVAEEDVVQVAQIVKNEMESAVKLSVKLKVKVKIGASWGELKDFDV
Effect on: enzyme activity
Action: inhibitor
Concentration: 77 µM
Baseline: untreated
`NC(=O)c1cnc(N[C@@H]2CCCC[C@@H]2N)nc1Nc1cccc(-n2nccn2)c1` has a remaining activity of 98.2%.
`O=C(Nc1ncc(SCCN2CCCC2)s1)[C@]1(c2ccc(S(=O)(=O)C3CC3)cc2)C[C@H]1C1CCCCC1` gave a remaining activity of 99.1%.
`CCN(CC)Cc1ccc2cc(COC(=O)Nc3ccc(C(=O)NO)cc3)ccc2c1` gave a remaining activity of 101%.
`Nc1ncnc2c1c(-c1cccc(OCc3ccccc3)c1)cn2C1CC(CN2CCCC2)C1` (stereo in doubt) has a remaining activity of 98.8%.
`CCc1oc2ccccc2c1C(=O)c1cc(Br)c(O)c(Br)c1` has a remaining activity of 97% and 90.3%.
